{"data": "Experimental data of several laboratories", "note": "Numbered parts are unrelated; each lists some results of a single study.", "chain of UniProt Q92630 (whole entry, looked up)": "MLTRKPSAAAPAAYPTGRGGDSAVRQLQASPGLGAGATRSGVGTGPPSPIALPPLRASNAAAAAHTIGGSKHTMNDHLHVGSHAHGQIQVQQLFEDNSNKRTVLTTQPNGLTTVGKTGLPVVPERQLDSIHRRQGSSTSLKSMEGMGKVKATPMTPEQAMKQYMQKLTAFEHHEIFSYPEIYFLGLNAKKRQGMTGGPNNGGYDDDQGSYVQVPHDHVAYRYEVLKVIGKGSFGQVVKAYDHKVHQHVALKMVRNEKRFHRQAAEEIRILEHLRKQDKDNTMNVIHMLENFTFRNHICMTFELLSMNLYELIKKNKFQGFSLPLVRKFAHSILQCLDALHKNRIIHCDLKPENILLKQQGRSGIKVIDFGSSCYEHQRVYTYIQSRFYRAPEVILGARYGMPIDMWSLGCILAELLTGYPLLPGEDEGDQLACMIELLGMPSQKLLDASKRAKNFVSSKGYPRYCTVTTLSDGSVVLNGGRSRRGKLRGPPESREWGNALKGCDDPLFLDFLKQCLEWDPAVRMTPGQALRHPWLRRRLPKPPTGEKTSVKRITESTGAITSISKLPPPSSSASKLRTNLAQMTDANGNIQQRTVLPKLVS", "chain of UniProt P06493 (whole entry, looked up)": "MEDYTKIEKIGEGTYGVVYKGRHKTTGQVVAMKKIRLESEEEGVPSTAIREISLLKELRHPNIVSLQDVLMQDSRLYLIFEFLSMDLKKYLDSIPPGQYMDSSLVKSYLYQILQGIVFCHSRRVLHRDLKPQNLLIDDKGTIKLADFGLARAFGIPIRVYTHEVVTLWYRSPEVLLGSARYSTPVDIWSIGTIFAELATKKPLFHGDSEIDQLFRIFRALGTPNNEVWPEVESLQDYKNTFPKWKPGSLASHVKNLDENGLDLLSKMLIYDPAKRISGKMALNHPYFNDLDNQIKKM", "chain of UniProt O14757 (whole entry, looked up)": "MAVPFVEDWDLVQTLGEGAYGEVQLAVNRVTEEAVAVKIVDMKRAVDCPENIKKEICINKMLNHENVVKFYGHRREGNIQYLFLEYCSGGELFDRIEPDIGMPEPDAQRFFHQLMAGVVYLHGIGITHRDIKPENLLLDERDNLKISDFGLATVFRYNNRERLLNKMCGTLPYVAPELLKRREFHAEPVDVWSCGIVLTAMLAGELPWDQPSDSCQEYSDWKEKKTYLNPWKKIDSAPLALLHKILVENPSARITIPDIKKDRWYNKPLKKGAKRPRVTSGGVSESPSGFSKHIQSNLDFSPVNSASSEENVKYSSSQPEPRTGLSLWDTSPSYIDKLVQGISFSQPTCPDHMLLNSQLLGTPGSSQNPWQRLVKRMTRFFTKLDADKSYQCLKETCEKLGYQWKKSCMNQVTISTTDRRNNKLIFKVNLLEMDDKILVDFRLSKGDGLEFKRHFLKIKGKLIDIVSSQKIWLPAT", "chain of UniProt Q8IVH8 (whole entry, looked up)": "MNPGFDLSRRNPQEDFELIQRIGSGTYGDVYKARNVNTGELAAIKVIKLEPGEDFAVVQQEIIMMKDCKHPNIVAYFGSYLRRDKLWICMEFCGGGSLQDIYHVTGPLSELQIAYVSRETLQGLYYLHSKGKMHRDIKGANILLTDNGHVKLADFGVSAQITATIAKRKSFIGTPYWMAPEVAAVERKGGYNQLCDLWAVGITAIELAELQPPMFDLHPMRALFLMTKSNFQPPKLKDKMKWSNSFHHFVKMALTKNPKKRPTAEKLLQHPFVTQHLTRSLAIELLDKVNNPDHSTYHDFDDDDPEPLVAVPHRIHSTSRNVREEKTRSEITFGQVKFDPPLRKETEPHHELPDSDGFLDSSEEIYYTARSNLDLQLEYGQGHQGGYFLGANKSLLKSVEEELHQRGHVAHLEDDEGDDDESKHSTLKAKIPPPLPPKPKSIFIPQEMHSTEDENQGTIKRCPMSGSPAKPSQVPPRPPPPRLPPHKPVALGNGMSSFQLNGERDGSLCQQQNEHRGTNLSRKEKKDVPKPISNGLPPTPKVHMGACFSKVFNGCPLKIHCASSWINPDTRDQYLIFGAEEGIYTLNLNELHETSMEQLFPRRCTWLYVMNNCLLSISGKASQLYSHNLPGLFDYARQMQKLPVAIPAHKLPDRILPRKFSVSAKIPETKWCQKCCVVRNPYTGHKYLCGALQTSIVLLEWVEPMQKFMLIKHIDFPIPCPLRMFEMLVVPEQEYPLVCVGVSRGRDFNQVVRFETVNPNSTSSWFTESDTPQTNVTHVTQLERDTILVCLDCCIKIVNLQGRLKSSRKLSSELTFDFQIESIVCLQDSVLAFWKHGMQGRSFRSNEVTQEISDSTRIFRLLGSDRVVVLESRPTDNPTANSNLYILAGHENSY", "chain of UniProt O14920 (whole entry, looked up)": "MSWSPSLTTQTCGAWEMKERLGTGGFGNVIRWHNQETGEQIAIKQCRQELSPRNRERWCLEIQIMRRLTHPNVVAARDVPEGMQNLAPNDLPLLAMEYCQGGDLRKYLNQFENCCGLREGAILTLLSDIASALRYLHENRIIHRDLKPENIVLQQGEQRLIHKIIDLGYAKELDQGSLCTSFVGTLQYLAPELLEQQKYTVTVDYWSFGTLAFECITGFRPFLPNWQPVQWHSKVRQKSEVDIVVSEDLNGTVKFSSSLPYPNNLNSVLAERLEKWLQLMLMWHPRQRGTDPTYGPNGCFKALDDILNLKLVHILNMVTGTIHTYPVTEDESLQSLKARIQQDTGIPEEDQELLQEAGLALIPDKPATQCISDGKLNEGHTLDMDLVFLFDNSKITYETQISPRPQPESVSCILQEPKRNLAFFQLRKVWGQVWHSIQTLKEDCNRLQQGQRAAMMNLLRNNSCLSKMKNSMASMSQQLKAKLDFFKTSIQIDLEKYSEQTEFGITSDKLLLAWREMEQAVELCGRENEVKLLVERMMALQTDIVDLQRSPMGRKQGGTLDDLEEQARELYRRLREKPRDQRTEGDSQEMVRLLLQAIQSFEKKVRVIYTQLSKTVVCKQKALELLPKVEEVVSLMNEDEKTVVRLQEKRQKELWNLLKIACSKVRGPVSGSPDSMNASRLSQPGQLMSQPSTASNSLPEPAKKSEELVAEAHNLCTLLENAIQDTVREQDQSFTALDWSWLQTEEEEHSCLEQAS", "chain of UniProt Q6PHR2 (whole entry, looked up)": "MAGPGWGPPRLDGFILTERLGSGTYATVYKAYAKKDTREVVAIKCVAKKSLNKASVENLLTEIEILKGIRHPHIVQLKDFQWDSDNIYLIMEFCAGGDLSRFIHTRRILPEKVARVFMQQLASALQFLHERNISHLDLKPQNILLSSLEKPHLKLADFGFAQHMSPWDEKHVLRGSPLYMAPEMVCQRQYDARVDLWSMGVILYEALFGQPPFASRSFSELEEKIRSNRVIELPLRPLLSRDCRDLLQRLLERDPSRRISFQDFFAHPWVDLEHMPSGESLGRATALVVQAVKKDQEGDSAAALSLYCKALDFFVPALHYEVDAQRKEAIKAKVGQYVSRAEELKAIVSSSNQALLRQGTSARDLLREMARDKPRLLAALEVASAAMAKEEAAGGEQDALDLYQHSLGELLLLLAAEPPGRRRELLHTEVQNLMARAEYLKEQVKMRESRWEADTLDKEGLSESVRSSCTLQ"}
{"data": "Study 1", "target": "Tyrosine-protein kinase Lck (LCK, Homo sapiens, UniProt P06239)", "observed": "enzyme activity", "mode": "inhibitor", "tested at": "0.5 µM", "relative to": "control", "chain of UniProt P06239 (whole entry, looked up)": "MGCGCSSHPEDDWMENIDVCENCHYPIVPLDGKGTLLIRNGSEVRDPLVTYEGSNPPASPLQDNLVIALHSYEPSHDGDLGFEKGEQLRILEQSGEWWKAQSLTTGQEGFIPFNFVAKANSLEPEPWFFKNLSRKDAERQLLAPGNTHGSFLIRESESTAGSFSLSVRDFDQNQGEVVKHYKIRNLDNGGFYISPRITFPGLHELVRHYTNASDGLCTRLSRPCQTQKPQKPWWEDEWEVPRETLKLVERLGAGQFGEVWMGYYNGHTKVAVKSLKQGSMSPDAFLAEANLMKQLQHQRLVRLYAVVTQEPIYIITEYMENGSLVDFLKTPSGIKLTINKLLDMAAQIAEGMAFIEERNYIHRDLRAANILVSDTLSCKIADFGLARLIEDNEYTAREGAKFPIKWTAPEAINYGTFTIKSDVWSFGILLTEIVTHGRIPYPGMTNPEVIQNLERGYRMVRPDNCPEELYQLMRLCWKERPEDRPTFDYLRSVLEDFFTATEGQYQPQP"}
{"SMILES": "CO[C@H]1C[C@@H]2CC[C@@H](C)[C@@](O)(O2)C(=O)C(=O)N2CCCC[C@H]2C(=O)O[C@H]([C@H](C)C[C@@H]2CC[C@@H](O)[C@H](OC)C2)CC(=O)[C@H](C)/C=C(\\C)[C@@H](O)[C@@H](OC)C(=O)[C@H](C)C[C@H](C)/C=C/C=C/C=C/1C", "remaining activity": "99.4%"}
{"SMILES": "Cn1sc(=O)n(Cc2ccccc2)c1=O", "remaining activity": "103%"}
{"SMILES": "COc1ccc(CNC(=O)Nc2ncc([N+](=O)[O-])s2)cc1", "remaining activity": "101%"}
{"SMILES": "Cc1cccc(-c2[nH]c(C(C)(C)C)nc2-c2ccc3c(c2)OCO3)n1", "remaining activity": "97.9%"}
{"SMILES": "O=C(CCCc1ccc(-c2ccccc2F)cc1)Nc1ccc(O)cc1", "remaining activity": "95.5%"}
{"SMILES": "NCCNc1ncc(C(N)=O)c(Nc2cccc(C(F)(F)F)c2)n1", "remaining activity": "87.6%"}
{"SMILES": "O=S(=O)(c1cccc2cnccc12)N1CCCNCC1", "remaining activity": "101%"}
{"SMILES": "Nc1[nH]nc2nc3ccccc3nc12", "remaining activity": "93.6%"}
{"SMILES": "Oc1ccc(-c2nc(-c3ccncc3)c(-c3ccc(F)cc3)[nH]2)cc1", "remaining activity": "92.6%"}
{"SMILES": "CCOC(=O)c1c(C)[nH]c(/C=C2\\C(=O)Nc3ccccc32)c1C", "remaining activity": "88.2%"}
{"SMILES": "Cc1ccc(NC(=O)c2ccc(CN3CCN(C)CC3)cc2)cc1Nc1nc(-c2cccnc2)cs1", "remaining activity": "7.63%"}
{"SMILES": "O=C(O)c1ccc2c3c1cccc3c(=O)n1c3ccccc3nc21", "remaining activity": "101%"}
{"SMILES": "O=C1NC(=O)C(c2cn(CCCO)c3ncccc23)=C1c1cnccn1", "remaining activity": "95.8%"}
{"SMILES": "O=C1NC(=O)C(c2cn(CCCn3ccnc3)c3ccccc23)=C1Nc1ccccc1", "remaining activity": "99.4%"}
{"data": "Study 2", "Structure (SMILES)": "O=c1nc(-c2ccccn2)sc2ccccc12", "tested at": "1 µM"}
{"target": "PRKCE (Homo sapiens, UniProt Q02156)", "observed": "cell-free assay", "method": "competition with immobilised ligand", "remaining binding [%]": 100}
{"target": "IKBKB (Homo sapiens, UniProt O14920)", "observed": "cell-free assay", "method": "competition with immobilised ligand", "remaining binding [%]": 100}
{"target": "CDK3 (Homo sapiens, UniProt Q00526)", "observed": "binding", "method": "competition with immobilised ligand", "remaining binding [%]": 99}
{"target": "CDC42BPG (Homo sapiens, UniProt Q6DT37)", "method": "competition binding", "remaining binding [%]": 80}
{"target": "Tyrosine-protein kinase ABL1, phosphorylated (ABL1, Homo sapiens, UniProt P00519, M351T)", "observed": "binding", "method": "competition with immobilised ligand", "remaining binding [%]": 100}
{"target": "DYRK2 (Homo sapiens, UniProt Q92630)", "observed": "binding", "method": "competition with immobilised ligand", "remaining binding [%]": 100}
{"target": "FLT3 (Homo sapiens, UniProt P36888, F691L/ITD)", "observed": "binding", "method": "competition with immobilised ligand", "remaining binding [%]": 100}
{"data": "Study 3", "Compound": "O=C(Nc1cnn(-c2csc(C(=O)NC3COC3)c2)c1)Nc1ccccc1Cl", "observed": "enzyme activity", "tested at": "5 µM"}
{"target": "PBK (Homo sapiens, UniProt Q96KB5)", "relative to": "untreated control", "remaining activity [%]": 112}
{"target": "GRK3 (Homo sapiens, UniProt P35626)", "relative to": "untreated control", "remaining activity [%]": 102}
{"target": "EPHA8 (Homo sapiens, UniProt P29322)", "relative to": "untreated control", "remaining activity [%]": 101}
{"target": "Cyclin-dependent kinase 1, with cyclin B (CDK1, Homo sapiens, UniProt P06493)", "relative to": "untreated control", "remaining activity [%]": 91.2}
{"target": "CHEK1 (Homo sapiens, UniProt O14757)", "relative to": "untreated control", "remaining activity [%]": 97.4}
{"target": "Cyclin-dependent kinase 2, with cyclin A1 (CDK2, Homo sapiens, UniProt P24941)", "mode": "inhibitor", "remaining activity [%]": 106}
{"target": "MAP4K3 (Homo sapiens, UniProt Q8IVH8)", "mode": "inhibitor", "remaining activity [%]": 97.5}
{"target": "Aurora kinase B (AURKB, Homo sapiens, UniProt Q96GD4)", "relative to": "untreated control", "remaining activity [%]": 91.4}
{"target": "DDR2 (Homo sapiens, UniProt Q16832)", "relative to": "untreated control", "remaining activity [%]": 98.9}
{"data": "Study 4", "Compound": "O=C1NC(=O)C(c2cn(-c3ccccc3)nc2-c2ccc(F)cc2)N1 (stereo not drawn)", "mode": "inhibitor", "tested at": "5 µM"}
{"target": "BMX (Homo sapiens, UniProt P51813)", "assay": "kinase-CDC37 interaction", "test system": "human cells", "scale": "relative to: vehicle", "log2 fold change": -0.421}
{"target": "FLT3 ITD human", "assay": "kinase-CDC37 interaction", "test system": "human cells", "scale": "relative to: vehicle", "log2 fold change": 0.002}
{"target": "EGFR (Homo sapiens, UniProt P00533, L858R)", "test system": "human cells", "scale": "relative to: vehicle", "log2 fold change": -0.415}
{"target": "RPS6KA1 (Homo sapiens, UniProt Q15418)", "assay": "kinase-CDC37 interaction", "test system": "human cells", "scale": "relative to: vehicle", "log2 fold change": -0.086}
{"target": "FLT3 (Homo sapiens, UniProt P36888)", "assay": "cell-based kinome screen", "test system": "human cells", "scale": "relative to: vehicle", "log2 fold change": 0.207}
{"target": "Cyclin-dependent kinase 7, with CDC37 (CDK7, Homo sapiens, UniProt P50613)", "test system": "human cells", "scale": "relative to: vehicle", "log2 fold change": 0.173}
{"target": "ULK3 (Homo sapiens, UniProt Q6PHR2)", "assay": "kinase activity", "conditions": "cell-based kinome screen", "scale": "relative to: vehicle", "log2 fold change": 0.103}
{"target": "BRAF (Homo sapiens, UniProt P15056, V600E)", "assay": "cell-based kinome profiling", "test system": "human cells", "scale": "relative to: vehicle control", "log2 fold change": -0.088}
{"target": "Interleukin-1 receptor-associated kinase 3, with CDC37 (IRAK3, Homo sapiens, UniProt Q9Y616)", "assay": "cell-based kinome screen", "test system": "human cells", "scale": "relative to: vehicle", "log2 fold change": -0.052}
{"note": "A few entries again (study 1):"}
{"SMILES": "Cc1ccc(NC(=O)c2ccc(CN3CCN(C)CC3)cc2)cc1Nc1nc(-c2cccnc2)cs1", "remaining activity": "7.63%"}
{"SMILES": "NCCNc1ncc(C(N)=O)c(Nc2cccc(C(F)(F)F)c2)n1", "remaining activity": "87.6%"}
{"SMILES": "O=S(=O)(c1cccc2cnccc12)N1CCCNCC1", "remaining activity": "101%"}
{"SMILES": "O=C1NC(=O)C(c2cn(CCCn3ccnc3)c3ccccc23)=C1Nc1ccccc1", "remaining activity": "99.4%"}
{"SMILES": "Nc1[nH]nc2nc3ccccc3nc12", "remaining activity": "93.6%"}
